# Measurements collected from several papers.
# Each numbered part is a random draw from the data of one study; scales do not carry over between parts.

# Sample 1
# Target: Histone acetyltransferase KAT6A, winged helix 2, GST fusion (KAT6A, Homo sapiens, UniProt Q92794, residues 85-181)
# Technique: protein binding microarray
# Molecule type: double-stranded DNA, one strand shown
# Matrix: in vitro
# Tested at: not given
# Setting: 8-mer, flanks averaged, mean of 2 arrays, mostly near background
# Relative to: not given
# Reading: higher = stronger binding
# Construct (chain): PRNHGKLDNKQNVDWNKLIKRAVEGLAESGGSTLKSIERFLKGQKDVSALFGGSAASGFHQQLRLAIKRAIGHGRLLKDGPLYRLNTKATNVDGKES
Sequence,E-score
ACATCCAT,-0.0454
GGGTATAC,-0.138
AGCCCAAG,-0.0423
ATTCTGTG,0.0474

# Sample 2
# Target: Sal-like protein 4, full length isoform A (SALL4, Homo sapiens, UniProt Q9UJQ4, residues 1-1053)
# Sequence of UniProt Q9UJQ4 (whole entry, looked up): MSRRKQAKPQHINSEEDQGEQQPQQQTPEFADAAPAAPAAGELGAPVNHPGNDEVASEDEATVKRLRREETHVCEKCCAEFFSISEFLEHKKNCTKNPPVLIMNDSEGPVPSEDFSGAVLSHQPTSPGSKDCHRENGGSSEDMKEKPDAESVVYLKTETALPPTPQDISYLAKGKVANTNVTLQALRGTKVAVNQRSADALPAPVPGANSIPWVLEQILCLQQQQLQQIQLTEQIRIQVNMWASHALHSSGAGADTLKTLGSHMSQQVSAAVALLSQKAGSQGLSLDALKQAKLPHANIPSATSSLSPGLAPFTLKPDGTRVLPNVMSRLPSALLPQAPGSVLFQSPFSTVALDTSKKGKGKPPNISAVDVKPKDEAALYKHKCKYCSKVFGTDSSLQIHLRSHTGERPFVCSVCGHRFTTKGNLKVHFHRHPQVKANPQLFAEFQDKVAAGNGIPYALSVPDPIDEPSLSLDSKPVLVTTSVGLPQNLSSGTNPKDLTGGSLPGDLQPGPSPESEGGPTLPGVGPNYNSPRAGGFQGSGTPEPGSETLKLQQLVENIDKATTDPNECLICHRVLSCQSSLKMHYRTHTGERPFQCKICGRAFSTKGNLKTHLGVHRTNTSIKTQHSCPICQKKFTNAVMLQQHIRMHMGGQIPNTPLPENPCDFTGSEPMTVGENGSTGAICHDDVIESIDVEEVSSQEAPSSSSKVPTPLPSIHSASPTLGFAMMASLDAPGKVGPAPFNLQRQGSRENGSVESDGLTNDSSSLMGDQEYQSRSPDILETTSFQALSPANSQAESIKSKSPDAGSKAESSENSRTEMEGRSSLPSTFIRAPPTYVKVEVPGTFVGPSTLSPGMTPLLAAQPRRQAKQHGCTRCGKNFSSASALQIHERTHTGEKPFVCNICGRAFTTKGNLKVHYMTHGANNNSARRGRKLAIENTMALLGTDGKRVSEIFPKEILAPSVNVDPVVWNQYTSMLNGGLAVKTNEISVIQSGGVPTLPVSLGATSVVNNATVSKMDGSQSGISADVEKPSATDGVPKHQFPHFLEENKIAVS
# Technique: universal PBM
# Molecule type: double-stranded DNA, one strand shown
# Matrix: in vitro
# Tested at: 600 nM
# Setting: 8-mer, flanks averaged, mean of replicates
# Reading: higher = stronger binding
Sequence,E-score
AGAATTTA,0.278
CGAGACAC,-0.218
CAACACTG,0.0926
ATATTTGG,0.344
ATAGACCG,-0.0562
CTAATTAA,0.294

# Sample 3
# Target: Interferon regulatory factor 5, full length, phosphomimetic (IRF5, Homo sapiens, UniProt Q13568-2, residues 1-514, S451D/S453D/S456D/S462D)
# Technique: protein-binding microarray
# Molecule type: double-stranded DNA, one strand shown
# Matrix: in vitro
# Tested at: 940 nM top
# Setting: 60-bp whole probe
# Added: salmon DNA 0.4 mg/ml
# Relative to: random background probes
# Reading: higher = stronger binding
# All sequences stand within: GCCTAGCAC … GTCTTGATTCGCTTGACGCTGCTG
Sequence,fitted relative affinity [z-score]
TTAGGTTTCGGGTATCGATTAGTGCTA,10.9
TCACCCCTCTCATTCCAACTGTGCTAG,1.25
TTAGAACTGGGGGCTGGATTAGTGCTA,1.48
TTAGATATCAGTATTGATTAGTGCTAG,0.198
TTAGATTTCAGTATCGAATAGTGCTAG,2.45
GACGGTATCGACACAGGGGACGTGCTA,4.25

# Further values, each from its own experiment
Molecule,target,test,test system,conditions,how to read,endpoint,result
"PhoQ, residues 284 288 289 292 302 303 GASLAW","PhoP, residues 12 14 15 18 19 AGCRL (Escherichia coli, UniProt P23836)","Sort-seq, measured: YFP reporter",E. coli,"PhoQ-PhoP variant library, added: 10 µM Mg2+","relative to: high Mg2+ state, higher = stronger signaling",fold induction,1.81
